# Results from different studies.
# Numbered parts are unrelated; each lists some results of a single study.
# UniProt P21918, sequence (whole entry, looked up): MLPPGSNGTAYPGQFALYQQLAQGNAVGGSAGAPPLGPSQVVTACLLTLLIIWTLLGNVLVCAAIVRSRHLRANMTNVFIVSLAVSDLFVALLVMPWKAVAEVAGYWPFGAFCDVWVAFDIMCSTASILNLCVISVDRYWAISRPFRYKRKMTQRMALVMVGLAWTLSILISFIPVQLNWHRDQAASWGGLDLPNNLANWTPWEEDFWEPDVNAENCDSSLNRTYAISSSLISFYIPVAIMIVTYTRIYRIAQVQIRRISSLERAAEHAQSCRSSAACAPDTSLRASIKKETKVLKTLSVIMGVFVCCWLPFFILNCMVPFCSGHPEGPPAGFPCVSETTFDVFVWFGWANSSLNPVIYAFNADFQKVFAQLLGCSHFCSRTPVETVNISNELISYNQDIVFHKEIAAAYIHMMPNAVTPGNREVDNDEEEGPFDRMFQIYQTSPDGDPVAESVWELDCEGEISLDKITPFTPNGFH
# UniProt P41145, sequence (whole entry, looked up): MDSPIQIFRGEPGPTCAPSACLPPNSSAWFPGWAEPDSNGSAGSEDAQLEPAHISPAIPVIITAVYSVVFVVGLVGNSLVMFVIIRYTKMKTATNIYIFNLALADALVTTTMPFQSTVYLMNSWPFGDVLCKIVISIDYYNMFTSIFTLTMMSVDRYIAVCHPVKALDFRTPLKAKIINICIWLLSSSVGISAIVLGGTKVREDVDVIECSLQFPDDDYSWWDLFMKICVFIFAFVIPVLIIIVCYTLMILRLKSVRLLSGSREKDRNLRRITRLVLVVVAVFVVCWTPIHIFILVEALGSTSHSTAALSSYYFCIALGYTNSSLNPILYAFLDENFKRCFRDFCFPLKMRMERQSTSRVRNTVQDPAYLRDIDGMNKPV
# UniProt P28223, sequence (whole entry, looked up): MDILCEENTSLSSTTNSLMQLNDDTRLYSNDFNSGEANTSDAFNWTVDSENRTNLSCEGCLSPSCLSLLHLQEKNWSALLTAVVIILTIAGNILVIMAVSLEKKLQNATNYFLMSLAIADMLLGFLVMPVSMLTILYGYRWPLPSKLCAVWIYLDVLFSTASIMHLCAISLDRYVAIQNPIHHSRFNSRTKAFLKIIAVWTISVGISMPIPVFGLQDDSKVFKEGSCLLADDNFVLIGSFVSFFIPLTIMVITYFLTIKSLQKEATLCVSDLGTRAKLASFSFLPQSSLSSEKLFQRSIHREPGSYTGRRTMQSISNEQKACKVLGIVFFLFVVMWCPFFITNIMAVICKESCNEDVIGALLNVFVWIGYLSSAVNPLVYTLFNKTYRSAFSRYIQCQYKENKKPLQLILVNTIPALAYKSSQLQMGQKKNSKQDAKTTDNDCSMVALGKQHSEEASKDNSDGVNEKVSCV
# UniProt P41143, sequence (whole entry, looked up): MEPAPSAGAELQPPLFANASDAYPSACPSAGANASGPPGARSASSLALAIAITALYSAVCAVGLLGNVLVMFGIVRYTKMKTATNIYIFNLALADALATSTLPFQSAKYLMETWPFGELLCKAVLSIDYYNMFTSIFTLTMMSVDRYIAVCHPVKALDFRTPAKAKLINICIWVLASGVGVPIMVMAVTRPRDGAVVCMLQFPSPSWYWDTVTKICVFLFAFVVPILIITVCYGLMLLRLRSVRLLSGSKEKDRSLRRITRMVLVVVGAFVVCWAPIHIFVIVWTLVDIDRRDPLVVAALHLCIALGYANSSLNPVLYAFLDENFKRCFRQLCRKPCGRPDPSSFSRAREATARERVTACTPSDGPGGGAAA
# UniProt P20309, sequence (whole entry, looked up): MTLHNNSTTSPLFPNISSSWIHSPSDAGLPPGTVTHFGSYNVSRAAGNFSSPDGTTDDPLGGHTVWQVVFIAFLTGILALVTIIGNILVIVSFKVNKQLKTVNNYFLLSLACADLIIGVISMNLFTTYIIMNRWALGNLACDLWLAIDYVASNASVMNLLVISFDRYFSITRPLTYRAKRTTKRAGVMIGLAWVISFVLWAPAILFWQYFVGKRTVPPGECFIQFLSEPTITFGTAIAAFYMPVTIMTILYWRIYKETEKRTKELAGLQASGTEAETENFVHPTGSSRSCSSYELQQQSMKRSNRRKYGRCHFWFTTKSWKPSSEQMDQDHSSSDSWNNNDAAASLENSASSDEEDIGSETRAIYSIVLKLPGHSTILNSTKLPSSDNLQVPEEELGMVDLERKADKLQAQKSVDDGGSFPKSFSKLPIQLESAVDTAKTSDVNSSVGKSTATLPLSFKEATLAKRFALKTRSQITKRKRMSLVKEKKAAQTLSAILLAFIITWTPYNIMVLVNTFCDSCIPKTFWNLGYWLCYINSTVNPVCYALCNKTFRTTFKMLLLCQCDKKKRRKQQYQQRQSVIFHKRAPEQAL
# UniProt P35372, sequence (whole entry, looked up): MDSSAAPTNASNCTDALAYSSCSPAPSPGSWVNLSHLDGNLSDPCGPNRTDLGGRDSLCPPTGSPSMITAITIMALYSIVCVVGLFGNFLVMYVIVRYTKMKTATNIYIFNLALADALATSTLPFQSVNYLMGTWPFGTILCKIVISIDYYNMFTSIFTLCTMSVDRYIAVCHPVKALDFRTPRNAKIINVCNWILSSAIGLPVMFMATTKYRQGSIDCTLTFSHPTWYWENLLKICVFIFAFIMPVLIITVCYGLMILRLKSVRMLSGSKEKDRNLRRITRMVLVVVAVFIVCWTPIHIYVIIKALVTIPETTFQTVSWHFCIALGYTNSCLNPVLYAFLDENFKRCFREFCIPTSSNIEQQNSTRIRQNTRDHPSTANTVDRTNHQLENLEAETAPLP
# UniProt P11229, sequence (whole entry, looked up): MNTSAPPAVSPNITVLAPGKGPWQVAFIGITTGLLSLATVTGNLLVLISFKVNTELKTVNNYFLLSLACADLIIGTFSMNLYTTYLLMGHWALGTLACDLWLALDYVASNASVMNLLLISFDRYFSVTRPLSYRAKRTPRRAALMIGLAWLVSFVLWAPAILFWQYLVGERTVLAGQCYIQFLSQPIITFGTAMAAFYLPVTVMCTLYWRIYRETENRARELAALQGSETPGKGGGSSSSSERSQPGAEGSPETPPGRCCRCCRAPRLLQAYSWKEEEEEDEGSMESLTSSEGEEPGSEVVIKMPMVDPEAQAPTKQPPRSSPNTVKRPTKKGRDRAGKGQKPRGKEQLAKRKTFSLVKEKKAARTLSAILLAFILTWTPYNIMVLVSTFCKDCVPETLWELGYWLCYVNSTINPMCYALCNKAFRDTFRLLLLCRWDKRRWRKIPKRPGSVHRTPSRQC

# Sample 1 — cell line: HEK-293T; organism: VSV pseudotyped with VSV-G; concentration: 10 µM; time: 16 h
SMILES,pseudovirus infection [%]
CC(=O)Nc1nnc(S(N)(=O)=O)s1,91.3
COC(=O)C1=C(C)NC(C)=C(C(=O)OC)C1c1ccccc1[N+](=O)[O-],114
Cn1c(=O)c2c(ncn2C)n(C)c1=O,114
C#CCN[C@@H]1CCc2ccccc21,131
Cc1cccc(C)c1OCC(C)N (stereo not drawn),86
CNC[C@H](O)c1ccc(O)c(O)c1,88.8
CN1CCN(C2=Nc3cc(Cl)ccc3Nc3ccccc32)CC1,105
Nc1nc(=O)n([C@@H]2CS[C@H](CO)O2)cc1F,132
O=C(O)COCCN1CCN(C(c2ccccc2)c2ccc(Cl)cc2)CC1 (stereo not drawn),111
Clc1ccccc1CN1CCc2sccc2C1,99.8
CN(C/C=C/c1ccccc1)Cc1cccc2ccccc12,103
CC/C(=C(/CC)c1ccc(O)cc1)c1ccc(O)cc1,109
CN(C)CCCN1c2ccccc2CCc2ccc(Cl)cc21,105
Cc1ccccc1C(OCCN(C)C)c1ccccc1 (stereo not drawn),111
O=C1CN(/N=C/c2ccc([N+](=O)[O-])o2)C(=O)N1,112

# Sample 2 — read-out: enzyme activity; action: inhibitor; concentration: 10 µM
# Target: Calcium/calmodulin-dependent protein kinase type II subunit alpha (CAMK2A, Homo sapiens, UniProt Q9UQM7)
# UniProt Q9UQM7, sequence (whole entry, looked up): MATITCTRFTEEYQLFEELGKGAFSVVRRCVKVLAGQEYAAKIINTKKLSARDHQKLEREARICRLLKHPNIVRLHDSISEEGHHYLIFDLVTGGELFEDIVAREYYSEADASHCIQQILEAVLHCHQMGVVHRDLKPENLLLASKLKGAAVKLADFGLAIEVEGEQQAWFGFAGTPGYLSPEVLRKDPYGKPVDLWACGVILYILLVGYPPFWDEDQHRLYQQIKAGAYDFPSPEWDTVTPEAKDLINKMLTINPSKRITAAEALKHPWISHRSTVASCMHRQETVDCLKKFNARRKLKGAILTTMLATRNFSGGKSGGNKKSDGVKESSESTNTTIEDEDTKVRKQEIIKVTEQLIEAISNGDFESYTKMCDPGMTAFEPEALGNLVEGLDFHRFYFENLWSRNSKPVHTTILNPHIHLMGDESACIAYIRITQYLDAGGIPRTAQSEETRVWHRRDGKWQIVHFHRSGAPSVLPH
SMILES,inhibition
C=C[C@]12CN(C)[C@@H]3[C@H]4CO[C@H](C[C@H]41)[C@]1(C(=O)N(OC)c4ccccc41)[C@@H]32,-7%
COc1ccc(/C=C/c2cc(O)cc(O)c2)cc1,19%
O=C(O)CCCc1ccc(N(CCCl)CCCl)cc1,2%
CC(C)[C@@H]1NC(=O)[C@H](CCCCN)NC(=O)[C@@H](Cc2c[nH]c3ccccc23)NC(=O)[C@H](Cc2ccc(O)cc2)NC(=O)[C@@H](NC(=O)[C@H](N)Cc2ccc3ccccc3c2)CSSC[C@@H](C(=O)N[C@H](C(N)=O)[C@@H](C)O)NC1=O,-10%
NC1CCSC1=O (racemic),-22%
C=C1C/C(=C/C)C(=O)O[C@@H]2CCN3CC=C(COC(=O)[C@]1(C)O)[C@H]23,2%
CCC1(C)CC(=O)NC(=O)C1,-2%

# Sample 3 — read-out: cell-free assay; concentration: 10 µM
# Compound: CC(C)(C)OC(=O)N1CCCC1CNC1CCC(c2cc(F)ccc2F)(S(=O)(=O)c2ccc(Cl)cc2)CC1 (stereo not drawn)
target,inhibition [%]
"Delta-type opioid receptor (OPRD1, Homo sapiens, UniProt P41143)",21.4
"5-hydroxytryptamine receptor 2A (HTR2A, Homo sapiens, UniProt P28223)",92.2
"D(1B) dopamine receptor (DRD5, Homo sapiens, UniProt P21918)",13.1
"Muscarinic acetylcholine receptor M3 (CHRM3, Homo sapiens, UniProt P20309)",-16.8
"Kappa-type opioid receptor (OPRK1, Homo sapiens, UniProt P41145)",69.8
"Mu-type opioid receptor (OPRM1, Homo sapiens, UniProt P35372)",49.1
"Muscarinic acetylcholine receptor M1 (CHRM1, Homo sapiens, UniProt P11229)",8.44

# Single results of other studies
Compound,technique,sample,pH,endpoint,result
Cc1ncsc1-c1ccc(CNC(=O)[C@@H]2C[C@@H](O)CN2C(=O)[C@@H](NC(=O)CCCCCNC(=O)Cc2ccccc2)C(C)(C)C)cc1,exponential regression of PRP log k',"1,9-decadiene/PBS",pH 7.4,"logD (1,9-decadiene/water)",-2.97

# Repeated from above (sample 1):
SMILES,pseudovirus infection [%]
CN(C)CCCN1c2ccccc2CCc2ccc(Cl)cc21,105
Clc1ccccc1CN1CCc2sccc2C1,99.8
Cn1c(=O)c2c(ncn2C)n(C)c1=O,114
CC(=O)Nc1nnc(S(N)(=O)=O)s1,91.3
